Results gathered from unrelated publications.
Lines come from different studies, so protocols differ.
Cell line: HEK-293T

SMILES	test	setting	scale	endpoint	value
[Fe+2].c1ccc(P(=NCc2ccccn2)(c2ccccc2)[c-]2cccc2)cc1.c1ccc(P(=NCc2ccccn2)(c2ccccc2)[c-]2cccc2)cc1	cell growth or viability, MTT	74 h	–	IC50	10.5 µM
CC(C)C(OC(=O)C(C)(C)C)n1nnnc1CCNC(=S)NCCCC[C@H](NS(=O)(=O)c1cccc(F)c1)C(=O)N[C@@H](Cc1c[nH]c2ccccc12)C(=O)NC1CCC1 (some centres unmarked)	cell growth or viability, MTT	100 µM	–	inhibition	< 35%
[Cl][Pd-2]1([Cl])[N+](=P(c2ccccc2)(c2ccccc2)c2ccccc2)Cc2cccc[n+]21	cell growth, MTT	–	reference: cancer cell lines over HEK-293T	selectivity ratio	~7.5 fold
CC1(C)C(=O)N=C2C1=C(O)C(=O)c1ccccc12	H4K20me1 level, inhibitor, western blot	24 h	–	effective concentration	< 5 µM
COC(=O)C1=Cc2ccccc2S1(=O)=O	–	concentration not given, 6 h	–	GFPu degradation	no effect
Cc1cc(C)nc(SCC(=O)Nc2ncc(Cc3cccc(OCc4cn(Cc5ccc(C#N)cc5)nn4)c3)s2)n1	cell growth or viability, MTS	–	–	GI50	5.87 µM
O=C(CSc1nc2ccccc2s1)Nc1nonc1[N+](=O)[O-]	cell viability, CellTiter-Glo	–	–	GI50	> 40 µM
Cc1ccc(N=C2CC(=O)c3sc(C)nc3C2=O)cc1	H4K20me1 depletion, inhibitor, western blot	sustained 3 days	–	effective single dose	1 µM

Repeated from above:
SMILES	test	setting	scale	endpoint	value
O=C(CSc1nc2ccccc2s1)Nc1nonc1[N+](=O)[O-]	cell viability, CellTiter-Glo	–	–	GI50	> 40 µM
